Assay results pooled from the literature.
Values joined by “and” are separate records of one study, mostly repeats; a detail may differ. ± gives the spread as reported.
SLC6A6 G62A: Sodium- and chloride-dependent taurine transporter (SLC6A6, Homo sapiens, UniProt P31641, G62A)
ZBTB11/CRBN: ZBTB11/CRBN (Homo sapiens, UniProt O95625+Q96SW2)
Chain of UniProt O95625 (whole entry, looked up): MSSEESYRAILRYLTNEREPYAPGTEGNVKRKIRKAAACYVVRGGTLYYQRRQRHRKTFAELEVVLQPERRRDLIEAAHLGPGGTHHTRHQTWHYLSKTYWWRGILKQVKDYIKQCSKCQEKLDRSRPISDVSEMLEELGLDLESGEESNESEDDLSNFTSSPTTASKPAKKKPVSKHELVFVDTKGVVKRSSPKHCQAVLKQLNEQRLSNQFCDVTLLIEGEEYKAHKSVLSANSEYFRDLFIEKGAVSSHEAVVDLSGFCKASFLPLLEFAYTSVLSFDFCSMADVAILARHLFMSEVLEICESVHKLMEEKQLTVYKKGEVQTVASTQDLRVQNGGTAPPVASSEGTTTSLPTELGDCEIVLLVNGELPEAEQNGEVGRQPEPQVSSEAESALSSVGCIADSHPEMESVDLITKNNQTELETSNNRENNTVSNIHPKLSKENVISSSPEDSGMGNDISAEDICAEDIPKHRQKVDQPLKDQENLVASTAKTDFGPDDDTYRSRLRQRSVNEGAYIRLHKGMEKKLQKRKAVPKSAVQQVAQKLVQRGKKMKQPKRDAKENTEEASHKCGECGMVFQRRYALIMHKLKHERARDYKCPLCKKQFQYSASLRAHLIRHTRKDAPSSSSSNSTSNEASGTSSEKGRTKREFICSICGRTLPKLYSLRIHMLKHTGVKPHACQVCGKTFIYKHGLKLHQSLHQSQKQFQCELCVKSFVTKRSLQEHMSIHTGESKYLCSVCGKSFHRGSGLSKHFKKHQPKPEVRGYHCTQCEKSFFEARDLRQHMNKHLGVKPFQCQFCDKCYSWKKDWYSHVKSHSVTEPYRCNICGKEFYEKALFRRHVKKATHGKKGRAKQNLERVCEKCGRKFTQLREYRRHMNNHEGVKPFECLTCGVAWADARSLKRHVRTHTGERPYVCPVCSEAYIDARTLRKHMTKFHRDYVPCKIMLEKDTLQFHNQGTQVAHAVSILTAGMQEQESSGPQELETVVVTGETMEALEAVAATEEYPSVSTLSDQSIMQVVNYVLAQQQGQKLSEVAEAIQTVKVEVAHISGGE
Chain of UniProt Q96SW2 (whole entry, looked up): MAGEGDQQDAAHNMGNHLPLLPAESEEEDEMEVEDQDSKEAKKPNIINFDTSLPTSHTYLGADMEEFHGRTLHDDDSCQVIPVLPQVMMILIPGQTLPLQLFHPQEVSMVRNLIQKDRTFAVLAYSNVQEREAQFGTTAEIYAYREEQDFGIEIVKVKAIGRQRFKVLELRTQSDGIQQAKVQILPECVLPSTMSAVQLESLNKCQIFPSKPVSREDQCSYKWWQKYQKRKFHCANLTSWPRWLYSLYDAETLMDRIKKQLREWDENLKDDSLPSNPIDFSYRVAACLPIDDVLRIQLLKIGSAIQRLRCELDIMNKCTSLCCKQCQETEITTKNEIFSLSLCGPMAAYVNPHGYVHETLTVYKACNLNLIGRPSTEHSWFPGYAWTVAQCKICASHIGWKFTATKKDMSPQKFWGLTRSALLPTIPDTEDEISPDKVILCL
TOP2A: DNA topoisomerase 2-alpha (TOP2A, Homo sapiens, UniProt P11388)
Chain of UniProt P05164 (whole entry, looked up): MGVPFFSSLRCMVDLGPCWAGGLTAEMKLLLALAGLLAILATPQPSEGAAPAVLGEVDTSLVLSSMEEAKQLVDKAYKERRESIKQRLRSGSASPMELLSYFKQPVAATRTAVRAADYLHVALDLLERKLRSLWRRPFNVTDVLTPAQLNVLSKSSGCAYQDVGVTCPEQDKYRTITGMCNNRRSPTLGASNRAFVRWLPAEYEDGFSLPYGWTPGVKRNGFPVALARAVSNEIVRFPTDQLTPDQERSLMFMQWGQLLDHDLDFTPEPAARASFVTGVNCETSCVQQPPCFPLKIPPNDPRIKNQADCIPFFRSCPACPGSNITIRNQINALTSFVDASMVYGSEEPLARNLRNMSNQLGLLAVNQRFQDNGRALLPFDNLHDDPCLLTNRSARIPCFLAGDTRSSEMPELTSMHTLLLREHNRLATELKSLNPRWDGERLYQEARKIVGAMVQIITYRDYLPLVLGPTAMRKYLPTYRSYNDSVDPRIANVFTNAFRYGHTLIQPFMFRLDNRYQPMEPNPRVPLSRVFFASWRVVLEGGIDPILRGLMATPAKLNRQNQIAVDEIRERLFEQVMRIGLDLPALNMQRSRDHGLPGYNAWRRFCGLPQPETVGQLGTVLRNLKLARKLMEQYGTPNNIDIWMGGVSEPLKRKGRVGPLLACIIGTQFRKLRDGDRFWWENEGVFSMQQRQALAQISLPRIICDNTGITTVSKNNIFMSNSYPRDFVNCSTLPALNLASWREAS
Chain of UniProt Q64663 (whole entry, unmodified, looked up): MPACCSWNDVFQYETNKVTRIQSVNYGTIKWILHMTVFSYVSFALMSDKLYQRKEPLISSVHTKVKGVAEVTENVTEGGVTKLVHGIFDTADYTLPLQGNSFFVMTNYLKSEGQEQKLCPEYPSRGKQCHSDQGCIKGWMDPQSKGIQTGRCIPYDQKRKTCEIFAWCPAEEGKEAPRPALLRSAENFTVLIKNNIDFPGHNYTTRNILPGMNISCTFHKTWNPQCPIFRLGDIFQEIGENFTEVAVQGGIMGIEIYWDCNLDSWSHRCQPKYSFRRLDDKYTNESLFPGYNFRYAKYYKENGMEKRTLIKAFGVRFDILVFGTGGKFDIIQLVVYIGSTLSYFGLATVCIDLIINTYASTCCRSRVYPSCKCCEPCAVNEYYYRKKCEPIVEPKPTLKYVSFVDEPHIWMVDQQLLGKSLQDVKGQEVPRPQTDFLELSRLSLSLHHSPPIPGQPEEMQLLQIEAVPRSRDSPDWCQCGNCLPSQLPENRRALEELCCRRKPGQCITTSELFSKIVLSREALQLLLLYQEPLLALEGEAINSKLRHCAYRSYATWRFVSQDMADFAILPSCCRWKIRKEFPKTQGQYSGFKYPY
Chain of UniProt P32239 (whole entry, looked up): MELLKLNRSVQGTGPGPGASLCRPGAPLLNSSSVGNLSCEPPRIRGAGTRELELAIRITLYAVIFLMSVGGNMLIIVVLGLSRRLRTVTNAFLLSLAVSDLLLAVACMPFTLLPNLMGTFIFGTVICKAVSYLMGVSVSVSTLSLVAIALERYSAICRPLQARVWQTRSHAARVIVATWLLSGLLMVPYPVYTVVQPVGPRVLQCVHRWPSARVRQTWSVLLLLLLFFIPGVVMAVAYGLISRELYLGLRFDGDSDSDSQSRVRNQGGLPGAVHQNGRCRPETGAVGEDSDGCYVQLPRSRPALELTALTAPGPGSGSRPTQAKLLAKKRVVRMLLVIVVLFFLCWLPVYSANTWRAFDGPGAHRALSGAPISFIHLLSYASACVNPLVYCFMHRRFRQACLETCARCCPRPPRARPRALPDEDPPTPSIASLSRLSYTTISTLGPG
Chain of UniProt Q16774 (whole entry, looked up): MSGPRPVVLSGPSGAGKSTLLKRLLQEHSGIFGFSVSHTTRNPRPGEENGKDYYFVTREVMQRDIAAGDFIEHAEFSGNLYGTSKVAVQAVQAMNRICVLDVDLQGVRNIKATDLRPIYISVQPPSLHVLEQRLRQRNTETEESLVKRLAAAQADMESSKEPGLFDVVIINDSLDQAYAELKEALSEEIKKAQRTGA
Chain of UniProt O76090 (whole entry, looked up): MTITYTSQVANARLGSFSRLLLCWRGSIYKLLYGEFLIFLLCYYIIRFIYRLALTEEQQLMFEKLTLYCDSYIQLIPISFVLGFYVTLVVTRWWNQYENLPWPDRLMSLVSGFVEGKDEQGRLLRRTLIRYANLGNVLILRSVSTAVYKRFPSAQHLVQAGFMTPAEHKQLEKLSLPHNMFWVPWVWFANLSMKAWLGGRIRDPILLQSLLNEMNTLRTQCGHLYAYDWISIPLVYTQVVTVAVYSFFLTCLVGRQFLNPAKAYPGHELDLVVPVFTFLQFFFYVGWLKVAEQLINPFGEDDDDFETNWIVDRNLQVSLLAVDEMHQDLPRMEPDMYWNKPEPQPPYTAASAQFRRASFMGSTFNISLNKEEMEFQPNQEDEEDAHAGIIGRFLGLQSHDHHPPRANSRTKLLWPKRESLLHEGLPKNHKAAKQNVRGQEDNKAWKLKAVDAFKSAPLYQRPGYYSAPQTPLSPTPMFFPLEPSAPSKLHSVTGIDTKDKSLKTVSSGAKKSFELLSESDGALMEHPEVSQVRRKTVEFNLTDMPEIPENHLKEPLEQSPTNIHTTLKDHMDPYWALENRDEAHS
Chain of UniProt P51575 (whole entry, unmodified, looked up): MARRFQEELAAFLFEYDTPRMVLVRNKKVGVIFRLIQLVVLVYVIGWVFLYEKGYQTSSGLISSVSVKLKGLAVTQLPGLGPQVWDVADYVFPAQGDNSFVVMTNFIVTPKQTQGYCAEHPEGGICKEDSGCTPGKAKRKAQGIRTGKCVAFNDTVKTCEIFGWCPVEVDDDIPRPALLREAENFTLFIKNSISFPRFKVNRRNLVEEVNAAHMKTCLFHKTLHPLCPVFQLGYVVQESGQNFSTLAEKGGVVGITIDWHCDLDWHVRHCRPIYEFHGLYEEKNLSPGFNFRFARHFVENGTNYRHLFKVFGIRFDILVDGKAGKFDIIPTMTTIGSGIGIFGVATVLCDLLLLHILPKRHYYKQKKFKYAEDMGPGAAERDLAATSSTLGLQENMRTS
Chain of UniProt Q7RTX7 (whole entry, looked up): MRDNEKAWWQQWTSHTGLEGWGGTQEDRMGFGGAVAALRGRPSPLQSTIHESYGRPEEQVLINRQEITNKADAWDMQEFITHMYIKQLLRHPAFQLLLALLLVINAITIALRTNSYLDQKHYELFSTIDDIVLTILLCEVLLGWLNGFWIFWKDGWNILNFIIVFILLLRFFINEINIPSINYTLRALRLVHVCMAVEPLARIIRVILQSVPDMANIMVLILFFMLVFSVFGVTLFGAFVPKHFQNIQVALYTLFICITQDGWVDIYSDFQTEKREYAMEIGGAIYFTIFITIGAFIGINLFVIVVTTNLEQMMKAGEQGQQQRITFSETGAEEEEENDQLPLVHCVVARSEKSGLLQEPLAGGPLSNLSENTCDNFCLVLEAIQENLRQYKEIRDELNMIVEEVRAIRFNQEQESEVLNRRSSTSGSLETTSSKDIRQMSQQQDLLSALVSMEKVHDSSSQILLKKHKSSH

CNCC(=O)O
remaining activity (Sodium- and chloride-dependent glycine transporter 2 (Homo sapiens, UniProt Q9Y345); glycine uptake, inhibitor, [3H]glycine uptake; 1000 µM, log concentration 1, added: [3H]glycine; baseline: no inhibitor): 102%

Cc1ncsc1-c1ccc(CNC(=O)[C@@H]2C[C@@H](O)CN2C(=O)[C@@H](NC(=O)CCCCCCCCCCCC(=O)NCCCCC#Cc2cccc(-c3nn(-c4nc(C(=O)O)cs4)c(CC4CC4)c3Cc3ccc(S(N)(=O)=O)cc3)c2)C(C)(C)C)cc1
Dmax (LDHA (Homo sapiens, UniProt P00338); degrader, western blot; PANC-1; 48 h): 93 ± 2.6%

[2H]c1cc(C)c(NC(=O)c2cnc(Nc3cc(N4CCCCC4)nc(C)n3)s2)c(Cl)c1
inhibition (YES1 (Homo sapiens, UniProt P07947); 0.0001 µM): > 50%

Nc1ccc(C(=O)O)cc1
current density (BEST1 (Homo sapiens, UniProt O76090); whole-cell patch clamp; HEK293 transiently expressing channel; concentration not given, membrane potential -20 mV): -19 pA/pF and -10.4 pA/pF and -15.4 pA/pF and -10 pA/pF and -16.8 pA/pF and -20.4 pA/pF and -9.71 pA/pF

Cc1nnc2n1-c1sc(C#Cc3cnn(C4(CCN5CCN(C)CC5)CN(c5cccc6c5C(=O)N(C5CCC(=O)NC5=O)C6=O)C4)c3)c(Cc3ccccc3)c1COC2 (stereo not drawn)
protein level (BRD3 (Homo sapiens, UniProt Q15059); degrader, western blot; SCID mouse MDA-MB-231 xenograft, tumour; intraperitoneal, 20 mg/kg single dose, 3 to 48 h): no effect

NCCCS(=O)(=O)O
normalised MST signal (SLC6A6 G62A; binding, microscale thermophoresis; 250 µM, room temperature, added: 50 nM labelled protein; higher = more binding): 0.00205

N#Cc1ccc2c(-c3ccncc3)c(-c3ccc(F)cc3)nn2c1
target occupancy (NLK (Homo sapiens, UniProt Q9UBE8); inhibitor, NanoBRET; HEK293; 1.0 µM): 40 to 70%

COc1cc(-c2cc(C(C)=O)n3ccccc23)c(OC)cc1Cn1ccnc1
ΔTm (Bromodomain-containing protein 3, BD1 (BRD3, Homo sapiens, UniProt Q15059)): 4 °C

OC[C@H]1OC(O)[C@H](O)[C@@H](O)[C@@H]1O (stereo partly drawn)
V∞/Vmax ratio (b) (Hexokinase-3 (HK3, Homo sapiens, UniProt P52790, A499V); substrate inhibition; mutant A499V, partial substrate inhibition model, added: ATP 20 mM): 0.32 ± 0.04

CCS(=O)(=O)N1CC(CC#N)(n2cc(-c3ncnc4[nH]ccc34)cn2)C1
change in binding constant (ORM1 (Homo sapiens, UniProt P02763); added: Fe3+): -15.2%

O=[N+]([O-])c1ccc(CNc2nc(NCc3cccc(C(F)(F)F)c3)nc3[nH]cnc23)cc1
activity (Inositol-tetrakisphosphate 1-kinase (Homo sapiens, UniProt Q13572); phosphatase activity, luciferase-coupled; concentration not given): inactive

Nc1ncnc2c1ncn2[C@@H]1O[C@H](COP(=O)(O)OP(=O)(O)OP(=O)(O)O)[C@@H](O)[C@H]1O
normalized current (P2X purinoceptor 7 (P2rx7, Rattus norvegicus, UniProt Q64663, I214A/Q143A); ion current, agonist, two-electrode voltage clamp; Xenopus laevis oocytes; 11 µM; baseline: highest concentration response): 0

CC[C@H](C)[C@@H]1NC(=O)[C@H](C)NC(=O)[C@H]([C@@H](C)CC)NC(=O)[C@H](CCC(N)=O)NC(=O)[C@H](C)NC(=O)[C@H](CCCNC(=N)N)NC(=O)[C@H](C(C)C)NC(=O)[C@H](CC(C)C)NC(=O)[C@H](CCC(=O)O)NC(=O)[C@H](CCCNC(=N)N)NC(=O)CNC(=O)[C@@H](NC(=O)[C@H](CC(C)C)NC(=O)[C@H](CCCCN)NC(=O)[C@@H](NC(=O)[C@@H](NC(=O)[C@H](CCC(=O)O)NC(=O)[C@H](CCC(=O)O)NC(=O)[C@H](CCSC)NC(=O)[C@H](Cc2c[nH]c3ccccc23)NC(=O)[C@H](CO)NC(=O)[C@@H](N)CC(=O)O)C(C)C)[C@@H](C)CC)CSSC[C@@H]2NC(=O)[C@@H](NC(=O)[C@H](CCCCN)NC(=O)[C@H](CC(N)=O)NC(=O)[C@H](C)NC(=O)[C@H](CC(C)C)NC(=O)[C@H](C)NC(=O)[C@H](CO)NC(=O)[C@H](Cc3ccc(O)cc3)NC(=O)[C@H](CC(C)C)NC(=O)[C@H](CCC(N)=O)NC(=O)c3ccc(-c4c5ccc(=[N+](C)C)cc-5oc5cc(N(C)C)ccc45)c(C(=O)[O-])c3)CSSC[C@H](NC(=O)CNC(=O)[C@H](C(C)C)NC(=O)[C@H](Cc3c[nH]cn3)NC2=O)C(=O)N[C@@H]([C@@H](C)O)C(=O)N[C@@H](CCCCN)C(=O)N[C@@H](CCCNC(=N)N)C(=O)N[C@@H](CO)C(=O)N[C@@H](CC(C)C)C(=O)N[C@@H](C)C(=O)N[C@@H](CCCNC(=N)N)C(=O)N[C@@H](Cc2ccccc2)C(=O)N[C@H](C(=O)O)CSSC[C@@H](C(=O)NCC(=O)N[C@@H](CCSC)C(=O)N[C@@H](CO)C(=O)N[C@H](C(=O)N[C@@H](Cc2c[nH]c3ccccc23)C(=O)N[C@@H](CO)C(=O)O)[C@@H](C)O)NC1=O
fast dissociation fraction (Relaxin receptor 1 (RXFP1, Homo sapiens, UniProt Q9HBX9); NanoBRET; concentration not given, added: relaxin 10 µM): 21.1%

Nc1nc2c(ncn2[C@@H]2O[C@H](COP(=O)(O)O)[C@@H](O)[C@H]2O)c(=O)[nH]1
reaction velocity (GUK1 (Homo sapiens, UniProt Q16774); enzyme activity, NADH-coupled; 62.5 µM, added: KCl 50 mM): 0.12 µM/s and 0.126 µM/s

COc1cc(NC(=O)c2ccccn2)ccc1/N=N/c1ccccc1Cl
activation (GRM1 (Homo sapiens, UniProt Q13255); positive allosteric modulator, IP accumulation; HEK293; 30 µM, in the dark, added: low-dose orthosteric agonist): 4.6%

C#CCOc1ccccc1N1CCN(C(=O)c2cccc(S(=O)(=O)n3cnc(C4CC4)n3)c2)CC1
probe-modified peptide count (AKR1C3 (Homo sapiens, UniProt P42330); label-free chemoproteomics LC-MS/MS, item: Tyr24; COLO 205; 100 µM, 4 h, 37 °C): 520 PSMs

O=C1CCC(N2C(=O)C=C(Nc3cccc(C4(NCCc5ccc(Cl)c(C(F)(F)F)c5)CCC4)c3)C2=O)C(=O)N1 (stereo not drawn)
Dmax (ZBTB11/CRBN; degrader, HiBiT; MIA PaCa-2 (ZBTB11/CRBN-HiBiT knock-in); 10 µM, 24 h): 80%

O=c1nc(SCc2cc(F)cc(C(F)(F)F)c2)nc(SCc2ccc3sccc3c2)[nH]1
linear DNA (TOP2A; DNA cleavage; 31.25 µM, added: etoposide 50 µM): 22.8%

CC(C)OCCn1c(=S)[nH]c(=O)c2[nH]ccc21
LDL lipid peroxidation (Myeloperoxidase (MPO, Homo sapiens, UniProt P05164); inhibitor, cholesteryl ester hydroperoxide; 10 µM; baseline: control): 4.68% and 6.2% and 12.1% and 11.7%

O=c1nc(SCc2cc(F)cc(C(F)(F)F)c2)nc(SCc2csc3ccc(Cl)cc23)[nH]1
linear DNA (TOP2A; DNA cleavage; 31.25 µM, replicate 1): 3.64%

Nc1ncnc2c1ncn2[C@@H]1O[C@H](COP(=O)(O)CP(=O)(O)OP(=O)(O)O)[C@@H](O)[C@H]1O
calcium influx (P2X purinoceptor 1 (P2RX1, Homo sapiens, UniProt P51575, K215A); calcium influx; 1 µM; baseline: ionomycin response): 97.6% and 92.5% and 67.8%

O=C(Nc1cccc(C(F)(F)F)c1)N1CCN(c2cccc(C(F)(F)F)c2)CC1
inward current density (CatSper channel complex (Homo sapiens, UniProt Q7RTX7+Q86XQ3+Q8NEC5+Q96P56); ion current, whole-cell patch clamp; human sperm; 10 µM, at -80 mV): -3.4 ± 0.2 pA/pF

CCOc1ccc(NC(=O)O[C@@H](Cn2nc(C(C)C)cc2C(C)C)C(C)C)cc1
current (Neuronal acetylcholine receptor; alpha4/beta2, (α4)2(β2)3 stoichiometry (Homo sapiens, UniProt P17787+P43681); ACh-evoked current, two-electrode voltage clamp; 1 µM, high-sensitivity stoichiometry, added: ACh 10 µM; baseline: ACh alone): 957 ± 69%

O=C(O)c1ccc(Nc2ncc3c(n2)-c2ccc(Cl)cc2C(c2c(F)cccc2F)=NC3)cc1
remaining activity (MAPK2(m); kinase activity; 1 µM): 105%

N#Cc1ccc2c(CN3CCOCC3)cc(-c3ccc([C@H]4CCC(=O)N4)cc3)nc2c1
FRET efficiency (Advanced glycosylation end product-specific receptor, with DIAPH1 (AGER, Homo sapiens, UniProt Q15109); acceptor photobleaching; HEK-293T expressing RAGE-eCFP; 0.1 µM, 60 min): 4.7 ± 0.5%

CCCCC[C@H](O)/C=C/[C@H]1[C@H](O)CC(=O)[C@@H]1C/C=C\CCCC(=O)O
Emax (PTGER1 (Homo sapiens, UniProt P34995, H88A); IP1 accumulation, agonist; AD293; 1 h, EP1 H88A mutant): 84.1 ± 7.38%

CCCC[C@H](NC(=O)[C@H](Cc1c[nH]c2ccccc12)N(C)C(=O)C1(O)C[C@H](O)[C@@H](NC(C)=O)[C@H]([C@H](O)[C@H](O)CO)O1)C(=O)N[C@@H](CC(=O)O)C(=O)N[C@@H](Cc1cccc(Br)c1)C(N)=O (stereo partly drawn)
bias factor (CCKBR (Homo sapiens, UniProt P32239); β-arrestin2 over calcium, agonist, PRESTO-Tango and calcium; baseline: CCK8s balanced agonist, higher = more β-arrestin2 biased): 2 and 1.98 and 1.94 and 1.91

CCC(C)(NCCc1ccc(C(F)(F)F)cc1C(F)(F)F)c1cccc(NC2=CC(=O)N(C3CCC(=O)NC3=O)C2=O)c1 (stereo not drawn)
Dmax (ZBTB11/CRBN; protein degradation, degrader, HiBiT luminescence; MOLT-4): 53%

O=C(COP(=O)(O)O)[C@@H](O)[C@H](O)[C@H](O)COP(=O)(O)O
thermal stability ratio (STK24 (Homo sapiens, UniProt Q9Y6E0); thermal proteome profiling; HepG2 cell lysate; concentration not given, 57 over 37 °C, mean; baseline: compound over control): 0.618

NCCCC(=O)O
normalised MST signal (SLC6A6 G62A; binding, microscale thermophoresis; 977 nM, room temperature, added: 50 nM labelled protein; higher = more binding): -0.0256

C=CC(=O)N1CCC(COCC(=O)N2CCN(c3nc(-c4cnc(N)nc4C(F)F)nc(N4CCOC[C@@H]4C)n3)CC2)CC1
remaining binding (TTK (Homo sapiens, UniProt P33981); KINOMEscan; 1 µM): 100%

N=C(N)Nc1nc2ccccc2[nH]1
Hill coefficient (HVCN1 (Homo sapiens, UniProt Q96D96, F150W); proton current, inhibitor, inside-out patch clamp): 0.92 ± 0.03

CC(C)C[C@H](N)C(=O)Nc1ccc2ccccc2c1
kcat (rat neuron-specific aminopeptidase; substrate; MW 110 kDa): 12.3 s⁻¹

A few entries again:
N=C(N)Nc1nc2ccccc2[nH]1
Hill coefficient (HVCN1 (Homo sapiens, UniProt Q96D96, F150W); proton current, inhibitor, inside-out patch clamp): 0.92 ± 0.03

CC(C)C[C@H](N)C(=O)Nc1ccc2ccccc2c1
kcat (rat neuron-specific aminopeptidase; substrate; MW 110 kDa): 12.3 s⁻¹
